Measured values gathered from unrelated publications.
Protocols differ between the studies behind these lines. ± marks the error that the study gave.

For `CO[C@H]1C[C@@H]2CC[C@@H](C)[C@@](O)(O2)C(=O)C(=O)N2CCCC[C@H]2C(=O)O[C@H]([C@H](C)C[C@@H]2CC[C@@H](OC(=O)NCCOCCOCCOCCOCCOCCOCCOCCOCCC(=O)N3CCc4cc(Cn5nc(-c6ccc7oc(N)nc7c6)c6c(N)ncnc65)ccc4C3)[C@H](OC)C2)C[C@@H](O)[C@H](C)/C=C(\C)[C@@H](O)[C@@H](OC)C(=O)[C@H](C)C[C@H](C)/C=C/C=C/C=C/1C`, “dose-reducing adverse events” read 25% (phase 1 dose escalation, item: gastric haemorrhage; advanced solid tumour patients; intravenous, 16 mg weekly, any grade).
With `Cc1nc([C@@](C)(CC2CC2)NC(=O)c2cc(OCC(F)(F)F)c(C3CC3)cn2)no1` the Tmax was 30 min (C57BL/6 mice; oral, 2.8 mg/kg).
`C[C@]1(CO)Cc2ncn(-c3ccc(C#N)c(Cl)c3)c2C(=O)O1` has a Tmax of 60 min (healthy Japanese adults, plasma; 80 mg once daily, after first dose, multiple dose).
`C=CC(=O)N1CC[C@H](n2nc(C#Cc3cc(OC)cc(OC)c3)c3c(N)ncnc32)C1` — result for “ALT increased, any grade”: 20% (human patients; oral, dose not given, QD regimen, adverse drug reaction, added: any phosphate binder).
`CNc1ccc(C(=O)Oc2cc(O/N=[N+](\[O-])N(C)C)c([N+](=O)[O-])cc2[N+](=O)[O-])cc1` has a maximum inhibition of 13.6% (human coronavirus OC43; virus-induced cell killing; MRC-5; screen).
The degradation of `CCCCN1CCC(COC(=O)c2ccc(N)c(O[11CH3])c2)CC1` is reported as 3 to 5% (rhesus monkey whole blood or plasma; 5 min).
`C=CCNc1c(O)cc2c(O)c1C[C@@H](C)C[C@H](OC)[C@H](O)[C@@H](C)/C=C(\C)[C@H](OC(N)=O)[C@@H](OC)/C=C\C=C(/C)C(=O)N2` — result for “patients with TEAE”: 24% (item: Constipation; unresectable or metastatic GIST/STS; intravenous, dose not given, all doses).
For `O=c1nc(NO)ccn1[C@@H]1O[C@H](CO)[C@@H](O)[C@H]1O`, the long-term stability was 102 ± 2.59% (rat amniotic fluid dialysate; 25 ng/mL, more than 4 weeks, -20 °C, low concentration, added: molnupiravir 5 ng/mL).
For `COc1cc2c(Oc3ccc4[nH]c(C)cc4c3F)ccnc2cc1OCC1(N)CC1`, “grade 1 or 2 abdominal pain” read 27.3% (paediatric recurrent refractory sarcoma; 12 mg).
`CC1(C)C(C=C(Cl)Cl)C1C(=O)OC(C#N)c1ccc(F)c(Oc2ccccc2)c1` (stereo not drawn): “hepatic intrinsic clearance” 3710 L/h/kg liver (IVIVE scaling; human adult).
`Cc1cc(C)c(CNC(=O)c2cc(Cl)c3c(c2C)O[C@@](C)([C@H]2CC[C@H](N(C)C)CC2)O3)c(=O)[nH]1`: “incidence of pleural effusion” 0% (relapsed/refractory NHL patients; dose not given, trial, safety set, treatment-related TEAE grade 5).
For `COc1ncccc1-c1cnn2ccc(N3CCN(C(=O)OC(C)C)CC3)nc12`, “free plasma concentration” read 180 nM (mouse, spinal nerve ligation model, plasma; oral, 30 mg/kg, 30 min).
`CC(C)C[C@H](NC(=O)[C@H](CCCCN)NC(=O)OCC1c2ccccc2-c2ccccc21)C(=O)N[C@H](C(=O)N[C@@H](Cc1ccccc1)C(=O)N[C@@H](Cc1ccccc1)C(=O)N[C@@H](CCCCN)C(=O)NCC(=O)N[C@@H](Cc1ccccc1)C(=O)N[C@@H](C)C(=O)N[C@@H](Cc1c[nH]c2ccccc12)C(=O)N[C@@H](CC(N)=O)C(=O)N[C@H](C(=O)N[C@H]1CSSC[C@@H](C(=O)N[C@@H](Cc2c[nH]cn2)C(=O)N[C@@H](CCCNC(=N)N)C(=O)N[C@@H](CCCNC(=N)N)C(=O)N[C@@H](C)C(=O)N[C@@H](CC(N)=O)C(N)=O)NC(=O)[C@H](C(C)C)NC(=O)[C@H](CCCNC(=N)N)NC(=O)[C@H](C(C)C)NC(=O)CNC(=O)[C@H](CC(N)=O)NC(=O)[C@H](CCCNC(=N)N)NC(=O)[C@H](Cc2ccc(O)cc2)NC(=O)[C@H](C(C)C)NC1=O)C(C)C)C(C)C` has an AST/ALT ratio of 0.52 ± 0.04 (ICR mice, serum; intraperitoneal, 5 mg/kg, day 5; baseline: AST over ALT).
For `O=C(Nc1ccccc1)C1CCN(C(=O)Oc2cccnc2)CC1`, “subjects with feeling drunk” read 7.1% (adverse event reporting; healthy women; oral, 20 mg, 7 days).
The maximum inhibition of `CC(C)(O)CNc1nc(Nc2ccnc(C(F)(F)F)c2)nc(-c2cccc(C(F)(F)F)n2)n1` is reported as 54.5% (human coronavirus OC43; virus-induced cell killing; MRC-5; screen).
With `CCN(CC)CCCNC(=O)c1ccc(-c2nc(CN3CCc4ccccc43)c(C)o2)cc1` the cytotoxicity efficacy was 0% (Vero-E6; CellTiter-Glo ATP; concentration not given, 72 h, retest 8-point duplicates; baseline: DMSO 0%, hyamine -100%, more negative, more toxic).
The AUC(0-t) of `O=c1ccc2ncc(=O)n3c2n1C[C@H]3CN1CCC(NCc2cc3c(cn2)OCCC3)CC1` is reported as 17700 ng·h/mL (healthy human volunteers, plasma; oral, 1500 mg single dose, geometric mean, alone).
`O=[N+]([O-])c1ccc2c(c1)S(=O)(=O)C=C2` — result for “mean platelet volume”: 5.37 fL (male C57BL/6 mice, blood; intraperitoneal, 10 mg/kg, day 8, group average).
`CCS(=O)(=O)Nc1ccc(Oc2ccc(F)cc2F)c(-c2cn(C)c(=O)c3[nH]ccc23)c1`: “treatment-emergent adverse events” 0% (serious lung infection; human, relapsed/refractory AML; oral, dose not given).
`CC(Nc1nc(N2CCN(CCN)CC2)nc2ccccc12)c1ccccc1` (stereo not drawn) has a cytotoxicity efficacy of -12.7% (Vero-E6; CellTiter-Glo ATP; concentration not given, 72 h, second round 5-point; baseline: DMSO 0%, hyamine -100%, more negative, more toxic).
For `Cn1c(-c2ccc(C(N)=O)cc2F)nnc1C(C)(C)Oc1c(F)cc(Cl)cc1F`, “subjects with any TEAE” read 33.3% (human; oral, 30 mg, single ascending dose).
`CC(=O)c1c(C)c2cnc(Nc3ccc(C4CCN(CCS(C)(=O)=O)CC4)cn3)nc2n(C2CCCC2)c1=O` — result for “patients with platelet count decreased”: 27.2% (HR+/HER2- advanced breast cancer patients; oral, dose not given, all grades, total).
With `CN1CCN(S(=O)(=O)c2cc([N+](=O)[O-])ccc2N(CCOS(C)(=O)=O)CCOS(C)(=O)=O)CC1` the albumin was 43 g/L (naive NOD/SCID mice, pooled blood; intraperitoneal, 12.5 mg/kg, week 4).
`C=CC(=O)Nc1cc(Nc2nccc(Nc3cc(Cl)c(F)cc3C(C)(C)O)n2)c(OC)cc1N1CC[C@@H](N(C)C)C1`: “incidence of vomiting” 18.8% (treatment-emergent adverse events; human; oral, 200 mg, phase I clinical trial).
`CN1CC[C@@H](c2c(O)cc(O)c3c(=O)cc(-c4ccc(C(F)(F)F)cc4Cl)oc23)[C@@H]1CO` — result for “patients with adverse event”: 25% (item: Hypotension; relapsed AML; oral, 150 mg, grade 3-4, intermittent dosing).
For `C[C@@H](NC(=O)N1C(=O)[C@H](Cc2ccnc(N)c2)[C@H]1C(=O)O)C1CCCCC1`, “incidence of decreased neutrophil” read 0% (healthy adult Chinese volunteers; continuous intravenous infusion, 1.5 mg/kg/h, 5-day infusion, CTCAE 5.0 grading).
For `O=C(Nc1ccc(Cl)cc1)Nc1ccc(Cl)c(Cl)c1`, “final permeate concentration” read 3.86 nM (ultrafiltration; cow milk whey; 2000 nM nominal in whole milk).
`CC(C)[C@@H]1NC(=O)CNC(=O)[C@H](CC(N)=O)NC(=O)[C@H](CCCNC(=N)N)NC(=O)[C@H](Cc2ccc(O)cc2)NC(=O)[C@H](C(C)C)NC(=O)[C@@H](NC(=O)[C@@H](NC(=O)[C@H](CC(N)=O)NC(=O)[C@H](Cc2c[nH]c3ccccc23)NC(=O)[C@H](C)NC(=O)[C@H](Cc2ccccc2)NC(=O)CN)C(C)C)CSSC[C@@H](C(=O)N[C@@H](Cc2cnc[nH]2)C(=O)N[C@@H](CCCNC(=N)N)C(=O)N[C@@H](CCCNC(=N)N)C(=O)N[C@@H](C)C(=O)N[C@@H](CC(N)=O)C(N)=O)NC(=O)[C@H](C(C)C)NC(=O)[C@H](CCCNC(=N)N)NC1=O` has a haematocrit of 41.2 ± 0.78% (ICR mice, blood; intraperitoneal, 5 mg/kg, day 5).
For `O=C1Nc2cc3[nH]nc(-c4ccncc4)c3cc2CN1Cc1ccccc1`, “patients with blurred vision” read 25% (CTCAE v4.03; advanced solid tumour patients; intravenous, 4.8 mg/kg, schedules 1/2).
With `O=c1cc(-c2ccc(O)c(O)c2)oc2cc(O)cc(O)c12` the faecal excretion was 2 ± 1.11 ng (Sprague-Dawley rat, male, lean, faeces; oral, 100 mg/kg neohesperidin, 36-48 h).

A few entries again:
For `O=C(Nc1ccccc1)C1CCN(C(=O)Oc2cccnc2)CC1`, “subjects with feeling drunk” read 7.1% (adverse event reporting; healthy women; oral, 20 mg, 7 days).
The maximum inhibition of `CC(C)(O)CNc1nc(Nc2ccnc(C(F)(F)F)c2)nc(-c2cccc(C(F)(F)F)n2)n1` is reported as 54.5% (human coronavirus OC43; virus-induced cell killing; MRC-5; screen).
